Results collected from several papers.
Parts stem from different laboratories: compare values within a part only.

Set 1
Target: Hepatocyte nuclear factor 3-alpha (Foxa1, Mus musculus, UniProt P35582, residues 1-468, full length assumed)
Technique: EMSA with sequencing
Form: double-stranded DNA, one strand shown
Matrix: in vitro
Concentration: 10 and 20 nM
Setting: whole designed probe, mean of two concentrations, ends assumed
Reference: negative control set to 0
Direction: higher = stronger binding
All sequences stand within: GTGAGCGGTGCCCATTGATGGGGAAC … TTTCACTGGGATCGTGGGGAC
Construct (chain): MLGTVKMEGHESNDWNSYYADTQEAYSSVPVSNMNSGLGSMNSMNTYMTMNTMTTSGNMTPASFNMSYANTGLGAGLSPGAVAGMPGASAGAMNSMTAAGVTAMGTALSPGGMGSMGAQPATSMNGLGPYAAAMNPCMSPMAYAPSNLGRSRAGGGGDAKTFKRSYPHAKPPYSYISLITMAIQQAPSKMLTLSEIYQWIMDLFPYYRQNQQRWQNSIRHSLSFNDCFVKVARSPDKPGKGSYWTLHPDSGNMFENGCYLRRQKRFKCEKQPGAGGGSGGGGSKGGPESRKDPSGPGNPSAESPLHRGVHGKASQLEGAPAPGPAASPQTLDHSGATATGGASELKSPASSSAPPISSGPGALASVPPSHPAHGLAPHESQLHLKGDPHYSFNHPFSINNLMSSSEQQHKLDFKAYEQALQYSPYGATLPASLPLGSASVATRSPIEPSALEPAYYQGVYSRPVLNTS
Sequence | normalised bound fraction [ratio]
GGATTCTTTCATTATACAAATACAGATGTTATTTTTTAATTTCAGAAGAAATCATGATATATCAATCTATTGAGTGCTAACTAAAAGTTCCCTTTGTTTACTTAGCTTTCTCTTAGTTATAAGAAAGAAAAAGACCTCTTGCATGAAAATAGTACGTTGCAGGAAGAAATTGTCATGCTAAGACTGGAACTAG | 0.521
AACGGGACTCTGGCTGGGCCAGGGCTCCTCGCCCAGGATGCCCGGGGAGAGGCCCCGTGTGAGGGCCTCACTCTGTGGGCTTAGGAATCCCAGAGTAATCTGATCAAGTTACCCGTGTCAGCCGGGCCGTCCACAACAGGCAGCCGCAGCGATTGAAGATGGGAATGTTCTTCTCAGAGATGACTCAGCTACT | -0.0653
GCAAATGGAGGGTGAAAAAGTCAGATTTTAGATCAGAGAATGTCATACCCTGAAATCAGCATGTTCTTAGTAGGGACATAAAATGGGGTTGTATGTTGACACAGACTGAGAGTAGCTCAAAGTTCAGGAGCCTGAGGGAGAAAGATAAACTTAAGTAAAGTTTGATTAAGAAATATTTTATTTTAGGCTGAGC | 0.219
ATCTTCCCCCTCTTCCTTGCCCCACCAGCTCACCTTCCCGGGTTATTTGCACAAAGGAAAATAAATAAAGCCGGCATTCGTTAACGCAGTTCTGGCGCAAACTGCTGTTTGCTCTGCATCTAACATGGTCCTTACGCGAGGCGTGGCTCCGGGAGAGCAAAGCACCGTGTCAGGCGCATGATCCGGGCTCGCC | 0.389
CCCTCATCCTGGGTGTCGGGGTGGGAGGTGTTCTCATCATGAATGGGAGGCGTACCCAGATCCAGCTCTGCCTTTTTTTAACCAAACCAGAGTGTAAACAAATGGCTGTTAATCGAGTGACTCACCACATAGCAAGATATGATACATGCCAGGAGAGAAAAAGAAAGTGCTGATGGAAAAATAATCTCATTAG | 0.342
ACTTCCCCACTTCCATGTTGCAATTCCCTTCTCCAATAATGGGAAATTTGGTCTCATTATCCTCAATATGGCTATGTCTTTGCTCAATTTACTAGATTGCTTAATGTAACCAGCATCCCAACTGCACTGGCTGCCTCTGTCTGCTGCTTCCACACTTTCCTCCTTTTCACTTCCTCAGACTTGGGGCATGCTG | 0.0725
AGTTGGGATTAAAAAAACAAAATCCAAAATCTGGGTTTCAGTGTCATCTGTAAAATGTAGATATAATGACTGTGGTGAGTATCTGTGTGTGCATGTGTACATATGTGTATGAGTTTATGTAGGAGTACACATATACTTAGAAGCACAAATGAGTCATGCTCTATACAACATTGTGCAGCTCCTTTTTTACAGA | 0.172
GTCTCTTGAGGGCAGGGACCCTGGCTGCTTTTCCCATTATCCTTCCAAAGCTCCAGCTCTGGGGCCATGAACCAGAAATCATTCCTTCAAGGATGTTGACACAGTGAGTCACCTGAGAAGGGGCAGGGTGCAGGAGGGGTGGGGCAGGAGATCAGGAACTGGTGTGGGACATTAGGGGTGGGAGATAGGCCAG | 0.246

Set 2
Target: Sal-like protein 4, full length isoform B (SALL4, Homo sapiens, UniProt Q9UJQ4-2, residues 1-616)
Technique: universal PBM
Form: double-stranded DNA, one strand shown
Matrix: in vitro
Concentration: not given
Setting: 8-mer, flanks averaged, mean of replicates
Direction: higher = stronger binding
Sequence | E-score
CAACGCGG | -0.284
AGATGTGC | 0.0427
AACGATCC | -0.122
GGACTGAA | -0.0153
CGTCCCCA | -0.197
ATTTTAAC | 0.204
ACAGGTGA | 0.107
CATTGTTA | 0.219
AAGGACTT | -0.131
GTCAGGAA | 0.0659
CCGAGAGA | -0.152
AACGCGCC | -0.184
CCTCCCCA | -0.254
CCTAGCTA | 5e-05
AACTCGAA | -0.109
CCCGGTTA | -0.235
GAAGTCTA | 0.0552
GTACGTAA | 0.276
AATCATAA | 0.441
GGGCATCA | -0.188
CATGAAGC | -0.0114
AGACGACA | -0.0352
AGTTATGC | 0.242

Set 3
Target: Centromere-binding protein 1, full length, N-terminal tag (CBF1, Saccharomyces cerevisiae, UniProt P17106, residues 1-351)
Sequence of UniProt P17106 (whole entry, looked up): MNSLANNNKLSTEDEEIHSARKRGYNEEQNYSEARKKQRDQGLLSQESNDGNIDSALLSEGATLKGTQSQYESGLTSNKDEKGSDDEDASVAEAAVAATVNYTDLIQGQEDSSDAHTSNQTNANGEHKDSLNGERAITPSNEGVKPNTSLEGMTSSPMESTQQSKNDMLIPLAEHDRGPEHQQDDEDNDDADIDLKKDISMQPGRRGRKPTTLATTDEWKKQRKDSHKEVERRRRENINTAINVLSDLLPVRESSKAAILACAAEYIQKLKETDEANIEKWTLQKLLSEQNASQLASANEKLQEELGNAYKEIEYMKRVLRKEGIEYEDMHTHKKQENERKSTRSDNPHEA
Technique: protein-binding microarray
Form: double-stranded DNA, one strand shown
Matrix: in vitro
Concentration: 0.8 µM
Setting: whole 60-bp probe, no competitor
Direction: higher = stronger binding
All sequences stand within: … GTCTTGATTCGCTTGACGCTGCTG
Sequence | fluorescence intensity
TGTACGAAGCTATATCACAACAGTATAGTAGTTAGG | 583 a.u.
GAATACATTTTTTCTTGCGTGCACGAAGGTTAGTAG | 544 a.u.
GAATTTTTATGTCCTCACGTTACACCGCATGTGTAG | 734 a.u.
TGTACGAAGCTATATCTCGTGAATATAGTAGTTAGG | 587 a.u.
GAATTCATTGTCTATCAGGAGAAGAGATCGTATTAG | 545 a.u.
GAAACTCTTCTTCGACACGTGTCGAGAAAAAAATAG | 11400 a.u.
CTATAATTTTTCTCCTTCGTGACCTCGGAGCTGTTC | 647 a.u.
GAATTCACTGATATGGACGTGGTATGCGGAGATTAG | 567 a.u.
GAAACCTGAGTGGGTCATCACTACTTTGTGTTTTAG | 515 a.u.
GAAGAAAAACATCAGGTGGCGATTAATGAAAGATAG | 1230 a.u.
CTATTGCTGAATAGTCACGTTGATGAGCACGAATTC | 2090 a.u.
GAATTCTGTTACCCGCTCGTGATACCTGACGACTAG | 909 a.u.
GAAGTATGAGAAGATGGGGTGAAGTAAAAGCGTTAG | 531 a.u.
CTACAGTTTTATCGTCATGTGCGCGTGTAGGCATTC | 2330 a.u.
GAAACGTAACGTTGTCACGTCCACAGAAGATGCTAG | 679 a.u.
CTAATATAGTTACATGTGATGAATGTATGGACATTC | 2520 a.u.
GAAGTCAATTTCAAACGTGAGGTATGGGTTCCATAG | 534 a.u.
GAAGGCCTAAAACTGGTGGTGACAGCTGAAGTGTAG | 478 a.u.
CTATGTTGAATGTGACACGTAACTCTAGGCCATTTC | 641 a.u.
GAATCTGTGAGGCAACTCGTGATTTCGAAACAATAG | 1430 a.u.
CCTAACTACTATAGCCACGTGAAATAGCTTCGTACA | 2230 a.u.
GAATTGCAGTGGTTAGCCGTGATTAGTAGATAGTAG | 572 a.u.

Set 4
Target: RNA binding protein fox-1 homolog 2, RRM domain, GST-SBP tag (RBFOX2, Homo sapiens, UniProt O43251-10, residues 100-194)
Technique: RNA Bind-n-Seq
Form: RNA
Matrix: in vitro
Concentration: 365 nM
Setting: natural RNA segment, single round, ends assumed
Reference: no-protein control
Direction: higher = stronger binding
All sequences stand within: GGGAGUUCUACAGUCCGACGAUC … UGGAAUUCUCGGGUGCCAA
Construct (chain): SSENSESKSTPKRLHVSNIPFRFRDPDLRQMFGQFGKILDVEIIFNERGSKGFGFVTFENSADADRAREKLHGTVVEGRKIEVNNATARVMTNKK
Sequence | RBNS enrichment (R)
UUCCCUCUGCCCUUUCUCUGGCUUCCUCUGCUCCUCCUCAUCCCUGCAGGCAAAGGAAACCCUCUGCUGCUUCCUUCCCCAGGAGCCAGGUGGGCACUGAAUGUGGUUUU | 0.505
ACUUGUUGCUGGUUUAAAGGUUAUUGUGGGAAACUGAACUAAAGGAGUUAGCAUCUUUAUUUUUGUAUCAAAGAUAAAGGUUAUUUUGAAAAUUAUUAGGGUUUUUACAU | 0.846
GUCUUUCCCAUGGGGAGGGAUUCUGGUUCCAGGGUCCCUCUGUGUAUUUGCUUUUUUGUUUUGGCUGAAAUUCUCCUGGAGGUCGGUAGGUUCAGCCAAGGUUUUAUAAG | 0.751
UCUAGGGGUGGGCUGUUUACACACUCCAGGAAUCUAGGGGUCGGUGUCUCCUUCCUGGAGAGGCUAUUAGGAGCCUUGUUGCUGGGGUGCAUAUGCUUAUAUGUGAAUGU | 0.517
GGAAGGUGACAUCUGUGUUUCGUUUUAGCUGAGGUUGGCAGAAACGUUCCCAAACUCCCCCAGCCCUGGACCCCAGCAGAUGAGGAAACGGCCCCAUUUACUGACCCCGC | 0.28
ACUUGCAGUGUAAAAGGAGGAAAGGGGUGGAAAAAACCGAAUUUCUGCAUUUAACUACAAAAAAAGUUUAUGUUUAGUUUGGUAGAGGUGUUAUGUAUAAUGCUUUGUUA | 0.779
GGGCAUUUUUCUACAAGAAGCAGUCAGCCUUCUCUCCCCCAUAAGGACUGGCUGUAACCUUAAGCCCAUCAAAGUUACUUCCAGCCUGGAGAGAACCUCACCAAACAGCU | 0.362
GGGACUUUUUCUAGACUUACAUUUAUUCAAAUGCAUAGGAAUAUGUCCUUGUGAUUAUCAGGAUCUCCUAAUAUUUAUCUCAAUUCUUUUGUAAGCUUGUGGAAAUUAUU | 0.702
CCGGUCUGUCCCGCUUGCCGGGCUUCUGUUGCAAGUCUUGGCUUAAGGAGACUUCCUGUGGGUUGCCAUGUCGCACGUCCGUUAGAUCUUGAUUUUACAGGUGAGGGUGG | 0.551
UUCCAAAUGAGAUUUAGAUUUGUUUUUCUCAUGCAUAAAUGAUUUUAAUUCAGUUUUAACCAGUGAAAACUCGUGGUUUUUCUGAAAGAAAAAAGAAAAGGGUUUCCUAU | 1.12
AUUUGGAGAGAUACUCAAAAGAGCUAAAACUGCAGCAUUUUACCUUUAAAUGCAGUGCCUAGAGAGAGAGUAUUGUCUCUUCCCCAACACUAACCCCACUCCCAUGAAGA | 0.611
GGCUCUAAGAGAGUAAUCAUAAAAUACCUUAGAUAAAAUUGCACUAUGGAAUUUUCAUUGAGUAUGUUUAAAUUAUUGGCUUGUCUACUAAUACACAUCUGCUUCAAAAU | 0.553

Repeated from above (set 1):
Sequence | normalised bound fraction [ratio]
GGATTCTTTCATTATACAAATACAGATGTTATTTTTTAATTTCAGAAGAAATCATGATATATCAATCTATTGAGTGCTAACTAAAAGTTCCCTTTGTTTACTTAGCTTTCTCTTAGTTATAAGAAAGAAAAAGACCTCTTGCATGAAAATAGTACGTTGCAGGAAGAAATTGTCATGCTAAGACTGGAACTAG | 0.521
AACGGGACTCTGGCTGGGCCAGGGCTCCTCGCCCAGGATGCCCGGGGAGAGGCCCCGTGTGAGGGCCTCACTCTGTGGGCTTAGGAATCCCAGAGTAATCTGATCAAGTTACCCGTGTCAGCCGGGCCGTCCACAACAGGCAGCCGCAGCGATTGAAGATGGGAATGTTCTTCTCAGAGATGACTCAGCTACT | -0.0653
GCAAATGGAGGGTGAAAAAGTCAGATTTTAGATCAGAGAATGTCATACCCTGAAATCAGCATGTTCTTAGTAGGGACATAAAATGGGGTTGTATGTTGACACAGACTGAGAGTAGCTCAAAGTTCAGGAGCCTGAGGGAGAAAGATAAACTTAAGTAAAGTTTGATTAAGAAATATTTTATTTTAGGCTGAGC | 0.219
ATCTTCCCCCTCTTCCTTGCCCCACCAGCTCACCTTCCCGGGTTATTTGCACAAAGGAAAATAAATAAAGCCGGCATTCGTTAACGCAGTTCTGGCGCAAACTGCTGTTTGCTCTGCATCTAACATGGTCCTTACGCGAGGCGTGGCTCCGGGAGAGCAAAGCACCGTGTCAGGCGCATGATCCGGGCTCGCC | 0.389
